Measured values collected from several papers.
Numbers after ± are the reported error.
TDP1: Tyrosyl-DNA phosphodiesterase 1 (TDP1, Homo sapiens, UniProt Q9NUW8)
UniProt Q9NUW8, sequence (whole entry, looked up): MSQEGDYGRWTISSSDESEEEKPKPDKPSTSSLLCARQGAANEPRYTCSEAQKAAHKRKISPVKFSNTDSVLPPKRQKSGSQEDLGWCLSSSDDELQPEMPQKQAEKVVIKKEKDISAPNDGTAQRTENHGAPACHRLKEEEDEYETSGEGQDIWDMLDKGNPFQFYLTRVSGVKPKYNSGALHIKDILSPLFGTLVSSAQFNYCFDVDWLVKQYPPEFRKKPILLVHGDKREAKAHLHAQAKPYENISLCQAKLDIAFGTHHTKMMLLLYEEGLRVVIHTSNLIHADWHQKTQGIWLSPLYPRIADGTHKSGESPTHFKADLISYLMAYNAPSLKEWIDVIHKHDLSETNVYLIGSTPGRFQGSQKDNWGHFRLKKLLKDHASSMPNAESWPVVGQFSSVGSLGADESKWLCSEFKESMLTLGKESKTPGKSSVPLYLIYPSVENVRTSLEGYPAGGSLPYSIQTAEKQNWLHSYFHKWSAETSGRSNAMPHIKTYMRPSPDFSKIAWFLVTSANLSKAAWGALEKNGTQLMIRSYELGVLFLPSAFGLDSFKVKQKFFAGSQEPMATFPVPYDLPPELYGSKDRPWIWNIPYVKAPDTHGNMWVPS
Uncharacterized protein: Uncharacterized protein (Trypanosoma brucei brucei, UniProt Q386Q8)
UTS2R: Urotensin-2 receptor (UTS2R, Homo sapiens, UniProt Q9UKP6)
UniProt Q9UKP6, sequence (whole entry, looked up): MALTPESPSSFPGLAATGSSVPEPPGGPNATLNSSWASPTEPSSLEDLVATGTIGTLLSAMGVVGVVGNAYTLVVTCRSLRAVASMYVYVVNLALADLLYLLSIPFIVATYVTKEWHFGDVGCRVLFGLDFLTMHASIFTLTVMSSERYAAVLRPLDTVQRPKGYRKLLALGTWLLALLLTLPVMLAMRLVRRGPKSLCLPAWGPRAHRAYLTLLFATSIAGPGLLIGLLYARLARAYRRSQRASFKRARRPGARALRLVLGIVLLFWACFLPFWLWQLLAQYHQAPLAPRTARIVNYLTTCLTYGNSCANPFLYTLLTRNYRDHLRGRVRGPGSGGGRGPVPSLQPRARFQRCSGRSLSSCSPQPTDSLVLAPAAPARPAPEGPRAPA
ppa: Inorganic pyrophosphatase (ppa, Escherichia coli, UniProt P0A7A9)
UniProt P0A7A9, sequence (whole entry, looked up): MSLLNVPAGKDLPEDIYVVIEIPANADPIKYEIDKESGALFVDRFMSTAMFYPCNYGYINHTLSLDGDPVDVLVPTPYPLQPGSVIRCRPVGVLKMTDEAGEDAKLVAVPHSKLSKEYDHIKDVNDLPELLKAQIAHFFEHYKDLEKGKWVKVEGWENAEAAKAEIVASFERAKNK
UniProt P32238, sequence (whole entry, looked up): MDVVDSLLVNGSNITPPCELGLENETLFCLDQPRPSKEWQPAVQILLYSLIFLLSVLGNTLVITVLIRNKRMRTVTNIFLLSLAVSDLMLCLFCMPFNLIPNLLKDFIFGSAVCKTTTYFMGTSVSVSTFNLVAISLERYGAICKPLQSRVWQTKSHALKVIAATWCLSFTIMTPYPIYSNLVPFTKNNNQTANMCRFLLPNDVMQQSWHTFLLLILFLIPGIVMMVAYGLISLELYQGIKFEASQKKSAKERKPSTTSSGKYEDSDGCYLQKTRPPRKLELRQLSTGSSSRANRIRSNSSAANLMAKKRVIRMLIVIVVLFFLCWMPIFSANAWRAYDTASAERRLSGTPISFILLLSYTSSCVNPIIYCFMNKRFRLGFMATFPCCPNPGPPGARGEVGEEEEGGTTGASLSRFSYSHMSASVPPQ
UniProt P13945, sequence (whole entry, looked up): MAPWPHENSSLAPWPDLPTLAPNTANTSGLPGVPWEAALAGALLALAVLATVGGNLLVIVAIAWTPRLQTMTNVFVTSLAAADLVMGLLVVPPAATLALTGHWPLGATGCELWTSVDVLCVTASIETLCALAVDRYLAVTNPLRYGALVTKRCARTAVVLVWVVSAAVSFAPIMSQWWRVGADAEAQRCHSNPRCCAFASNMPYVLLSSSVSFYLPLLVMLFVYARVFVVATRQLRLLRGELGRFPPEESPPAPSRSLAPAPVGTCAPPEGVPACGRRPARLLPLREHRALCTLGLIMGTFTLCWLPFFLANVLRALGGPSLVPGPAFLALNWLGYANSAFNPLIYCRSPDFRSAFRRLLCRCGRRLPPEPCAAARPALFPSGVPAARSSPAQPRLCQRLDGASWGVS
UniProt Q9NR22, sequence (whole entry, looked up): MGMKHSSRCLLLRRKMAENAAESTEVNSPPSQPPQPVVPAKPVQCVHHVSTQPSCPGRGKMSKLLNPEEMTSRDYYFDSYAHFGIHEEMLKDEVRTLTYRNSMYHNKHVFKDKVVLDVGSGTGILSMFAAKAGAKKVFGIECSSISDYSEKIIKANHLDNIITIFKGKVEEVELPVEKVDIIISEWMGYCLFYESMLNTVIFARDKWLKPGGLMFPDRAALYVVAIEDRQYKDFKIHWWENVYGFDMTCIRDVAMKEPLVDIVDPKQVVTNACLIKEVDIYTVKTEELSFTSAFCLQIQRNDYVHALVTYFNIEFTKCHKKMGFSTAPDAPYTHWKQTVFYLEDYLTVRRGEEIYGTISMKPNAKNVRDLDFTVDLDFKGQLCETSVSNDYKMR

Compound = O=C(O)c1ccc(Nc2c(-c3ccc(CON=Cc4cccc(N5CCCCC5)n4)cc3)nc3cc(-c4ccccc4)ccn23)cc1; tested on = TDP1; assay = enzyme activity, inhibitor; setting = 100 µM, unpurified compound; endpoint = inhibition; value = 31.2%
Compound = Cc1nc(N)nc2c1C(=O)N[C@@H](c1ccc(F)cc1-c1cccc(OCC[18F])n1)C2; assay = binding, radioligand competition; system = mouse brain homogenate; setting = with: [3H]HSP990 0.6 nM; endpoint = Ki; value = ~200 nM
Compound = Cc1ccc(-c2nn(-c3ccccc3)cc2C=NOCc2ccc(-c3nc4cc(-c5ccccc5)ccn4c3Nc3ccc(C(=O)O)cc3)cc2)o1; tested on = TDP1; assay = enzyme activity, inhibitor; setting = 100 µM, unpurified compound; endpoint = inhibition; value = 78.3%
Compound = CC(=O)C1=C(C)Nc2ccccc2S1; tested on = Uncharacterized protein; assay = enzyme activity, inhibitor, coupled colorimetric; setting = 30 µM, with: E. coli pyrophosphatase coupling; endpoint = inhibition; value = 26.6%
Compound = CC(C)[C@H](NC(=O)[C@@H]1CSSC(C)(C)[C@H](NC(=O)[C@@H](N)CC(=O)O)C(=O)N[C@@H](Cc2ccccc2)C(=O)N[C@H](Cc2c[nH]c3ccccc23)C(=O)N[C@@H](CCCN)C(=O)N[C@@H](Cc2ccc(O)cc2)C(=O)N1)C(=O)O; tested on = UTS2R; assay = Gi1 activation, agonist, BRET2; system = HEK293; endpoint = EC50; value = 13.8 nM
Compound = CC(C)C[C@@H](NC(=O)[C@@H](CC(C)C)NC(=O)[C@@H](CC(=O)O)NC(=O)[C@@H](CC(C)C)NC(=O)[C@@H](CC(C)C)NC(=O)[C@@H](CC(C)C)NC(=O)[C@H](NC(=O)[C@@H](CC(=O)O)NC(=O)[C@H](NC(=O)[C@H]1CCCN1C(=O)[C@@H](Cc1ccccc1)NC(=O)[C@@H](CC(C)C)NC(=O)[C@@H](CC(C)C)NC(=O)[C@@H](CC(=O)O)NC(=O)[C@@H](CC(C)C)NC(=O)[C@@H](Cc1ccc(O)cc1)NC(=O)[C@@H](C)NC(=O)[C@@H](CCCNC(=N)N)NC(=O)[C@@H](Cc1c[nH]c2ccccc12)NC(=O)[C@H]1CCCN1C(=O)[C@@H](CC(N)=O)NC(=O)[C@@H](CCC(N)=O)NC(=O)[C@@H](CC(=O)O)NC(=O)[C@@H](CC(=O)O)NC(=O)[C@@H](CSC1CC(=O)N(CCNC(=O)CN2CCN(CC(=O)O)CCN(CC(=O)O)CC2)C1=O)NC(=O)[C@@H](C)N)[C@H](C)O)[C@H](C)O)C(=O)N[C@H](Cc1c[nH]c2ccccc12)C(=O)O (stereo partly shown) [copper-64 labelled]; system = C57BL/6 mice, female, B16-F10 melanoma, tumor; setting = intravenous, 24 h; endpoint = tissue uptake; value = 11.4 %ID/g
Compound = C[N+]1(Cc2ccc3ccccc3c2)CCN(CCCN2c3ccccc3Sc3ccc(Cl)cc32)CC1; tested on = Uncharacterized protein; assay = enzyme activity, inhibitor, coupled colorimetric; setting = 30 µM, with: E. coli pyrophosphatase coupling; endpoint = inhibition; value = 30.6%
Compound = COc1cccc2cc(C=NOCc3ccc4nc(-c5ccccc5)c(Nc5ccc(C(=O)O)cc5)n4c3)oc12; tested on = TDP1; assay = enzyme activity, inhibitor; setting = 100 µM, unpurified compound; endpoint = inhibition; value = -3.6%
Compound = C[Si](C)(C)C[C@@H](CN)CC(=O)O; tested on = CCKAR (Homo sapiens, UniProt P32238); assay = ligand displacement, radioligand; setting = 75 µM; endpoint = inhibition; value = 11%
Compound = CCCC[C@H](NC(=O)COCCOCCNC(=O)CN1CCN(CC(=O)O)CCN(CC(=O)O)CC1)C(=O)N[C@H]1CC(=O)NCCCC[C@@H](C(N)=O)NC(=O)[C@H](Cc2c[nH]c3ccccc23)NC(=O)[C@H](CCCNC(=N)N)NC(=O)[C@@H](Cc2ccccc2)NC(=O)[C@H](Cc2c[nH]cn2)NC1=O [technetium-99m labelled]; system = C57 mouse, muscle; setting = intravenous, 0.037 MBq, 4 h; endpoint = tissue uptake; value = 0.03 ± 0.02 %ID/g
Compound = CN(Cc1ccc(/C=C/C(=O)NO)cc1)CC12CC3CC(CC(C3)C1)C2; tested on = human 5-HT2B receptor; assay = agonist radioligand binding; setting = 0.05 µM; endpoint = inhibition; value = -11%
Compound = COC1CN([C@H]2CC[C@H]([C@@]3(C)Oc4c(Cl)cc(C(=O)NCc5c(SC)cc(C)[nH]c5=O)c(C)c4O3)CC2)C1; assay = RNA-seq, refers to: PRG2; system = human, whole blood; setting = dose not given, 24 h; scale = relative to: pretreatment baseline; endpoint = log2 fold change; value = 6.59
Compound = O=C1c2sc(-c3ccc(N4CCC(CO)CC4)nc3F)nc2CCN1c1cccnc1; tested on = UTS2R; assay = ligand displacement, radioligand; setting = 1 µM; endpoint = inhibition; value = -2%
Compound = CCCC[C@H](NC(=O)CCCCCCCNC(=O)CN1CCN(CC(=O)O)CCN(CC(=O)O)CC1)C(=O)N[C@H]1CC(=O)NCCCC[C@@H](C(N)=O)NC(=O)[C@H](Cc2c[nH]c3ccccc23)NC(=O)[C@H](CCCNC(=N)N)NC(=O)[C@@H](Cc2ccccc2)NC(=O)[C@H](Cc2c[nH]cn2)NC1=O [technetium-99m labelled]; system = C57 mouse, intestine; setting = intravenous, 0.037 MBq, 2 h; endpoint = tissue uptake; value = 26.7 ± 1.24 %ID
Compound = COc1cc([N+](=O)[O-])ccc1-n1c(C)cc(C=NOCc2ccc(-c3nc4cc(-c5ccccc5)ccn4c3Nc3ccc(C(=O)O)cc3)cc2)c1C; tested on = TDP1; assay = enzyme activity, inhibitor; setting = 100 µM, unpurified compound; endpoint = inhibition; value = 42.1%
Compound = N#CSc1sc(N)nc1-c1ccccc1; tested on = ppa; assay = inhibitor, counter-screen, coupling enzyme alone; setting = 30 µM; endpoint = inhibition; value = 60.1%
Compound = O=C1c2sc(-c3ccc(N4CCC(F)C4)nc3F)nc2CCN1c1cccnc1 (stereo not shown); tested on = ADRB3 (Homo sapiens, UniProt P13945); assay = ligand displacement, radioligand; setting = 1 µM; endpoint = inhibition; value = -4%
Compound = COc1ccc(NC(=O)Nc2cc(C(C)(C)C)on2)cc1OC; tested on = ppa; assay = inhibitor, counter-screen, coupling enzyme alone; setting = 30 µM; endpoint = inhibition; value = -8.2%
Compound = C/C=C/C(=O)Nc1ccc2nc(NCCCCCN(C)C)nc(NCCCCCCN(C)C)c2c1; tested on = PRMT8 (Homo sapiens, UniProt Q9NR22); assay = enzyme activity, inhibitor, radiometric; setting = 50 µM; endpoint = inhibition; value = 73%

For quick reference, copied from above:
Compound = CC(C)C[C@@H](NC(=O)[C@@H](CC(C)C)NC(=O)[C@@H](CC(=O)O)NC(=O)[C@@H](CC(C)C)NC(=O)[C@@H](CC(C)C)NC(=O)[C@@H](CC(C)C)NC(=O)[C@H](NC(=O)[C@@H](CC(=O)O)NC(=O)[C@H](NC(=O)[C@H]1CCCN1C(=O)[C@@H](Cc1ccccc1)NC(=O)[C@@H](CC(C)C)NC(=O)[C@@H](CC(C)C)NC(=O)[C@@H](CC(=O)O)NC(=O)[C@@H](CC(C)C)NC(=O)[C@@H](Cc1ccc(O)cc1)NC(=O)[C@@H](C)NC(=O)[C@@H](CCCNC(=N)N)NC(=O)[C@@H](Cc1c[nH]c2ccccc12)NC(=O)[C@H]1CCCN1C(=O)[C@@H](CC(N)=O)NC(=O)[C@@H](CCC(N)=O)NC(=O)[C@@H](CC(=O)O)NC(=O)[C@@H](CC(=O)O)NC(=O)[C@@H](CSC1CC(=O)N(CCNC(=O)CN2CCN(CC(=O)O)CCN(CC(=O)O)CC2)C1=O)NC(=O)[C@@H](C)N)[C@H](C)O)[C@H](C)O)C(=O)N[C@H](Cc1c[nH]c2ccccc12)C(=O)O (stereo partly shown) [copper-64 labelled]; system = C57BL/6 mice, female, B16-F10 melanoma, tumor; setting = intravenous, 24 h; endpoint = tissue uptake; value = 11.4 %ID/g
Compound = C[N+]1(Cc2ccc3ccccc3c2)CCN(CCCN2c3ccccc3Sc3ccc(Cl)cc32)CC1; tested on = Uncharacterized protein; assay = enzyme activity, inhibitor, coupled colorimetric; setting = 30 µM, with: E. coli pyrophosphatase coupling; endpoint = inhibition; value = 30.6%
Compound = COc1cccc2cc(C=NOCc3ccc4nc(-c5ccccc5)c(Nc5ccc(C(=O)O)cc5)n4c3)oc12; tested on = TDP1; assay = enzyme activity, inhibitor; setting = 100 µM, unpurified compound; endpoint = inhibition; value = -3.6%
